Measurements collected from several papers.
Each line is one published result; not all experiments were run side by side. Values joined by “and” are separate records of one study, mostly repeats; a detail may differ. ± gives the spread as reported.

SMILES	cell line	test	setting	how to read	endpoint	result
CN(C)CCN1CCN(c2ccc3nc(-c4ccc5nc(-c6ccc(C(F)(F)F)cc6)[nH]c5c4)[nH]c3c2)CC1	TK-10	SRB	10 µM, 48 h		growth percent	130%
Cc1ncsc1-c1ccc(C(C)NC(=O)C2CC(O)CN2C(=O)C(NC(=O)CCCCCCCCCCN2CCCC(Nc3ncc(Cl)c(Nc4ccccc4S(=O)(=O)C(C)C)n3)C2)C(C)(C)C)cc1 (stereo not drawn)	22Rv1	RNA-seq, measured: ZNF818P mRNA	concentration not given	reference: DMSO	log2 fold change	-2.23
CNC(NN=Cc1ccc([N+](=O)[O-])o1)=[S+][Au-][Cl]	CAKI-1	annexin V/PI flow cytometry	5 µM, 72 h		cell fraction ANV+/PI+	2.7 ± 0.4%
O=C(Nc1ccccc1)c1cccc([C@@H]2C[C@H]2NC2CCC2)c1 (racemic)	SET-2	cell growth, CellTiter-Glo	0.1 µM, 7 d	reference: vehicle	relative growth	94.5% and 89.7% and 96.6%
CO[C@@H]1[C@@H](OC(N)=O)[C@@H](O)[C@H](Oc2ccc3c(O)c(NC(=O)c4ccc(O)c(CC=C(C)C)c4)c(=O)oc3c2C)OC1(C)C	HCT-116 BRCA2-/-		100 µM, replicate 1		colony count	16
O=C(N1CCCC1)n1cc(-c2ccc(-c3ccccc3)cc2)nn1	mouse T cells	N-terminal labelling proteomics, measured: LARP4 N-terminal peptides	0.001 µM, 6 h	reference: DMSO	SILAC ratio	0.94
CCCCCCCCN(CCC(=O)Nc1ccccc1)C(=O)C1CCCN1 (stereo not drawn)	progeroid mouse fibroblasts, Lmna G609G/G609G	MTT	2 µM, 72 h	reference: vehicle-treated wild type	viability	70 ± 8%
NCC(=O)Nc1ccc(Sc2ccc3c(/C=C/c4ccccn4)n[nH]c3c2)cc1	Ba/F3 TEL-VEGFR2	cell growth, CCK-8			GI50	190 nM
Cc1cc(Cl)cc(-c2ccnc3cc(CN4C(=O)C5C(C4=O)C5(C)C)sc23)c1C[C@@H]1CNCCO1 (stereo partly drawn)	CHP-212 resistant	PI staining flow cytometry	0.1 µM, 24 h		cells in S phase	18.3% and 17.3% and 12.7%
COc1cc(N2CCN(C(=O)CCOCCNC(=O)[C@@H]3CCCN3)CC2)ccc1Nc1ncc(Cl)c(Nc2ccccc2P(C)(C)=O)n1	H3122	annexin V-FITC/PI flow cytometry	500 nM, 24 h		early apoptotic cells	1.83% and 1.6% and 1.73%
C=CC(=O)Oc1ccc(OC)c(-c2c[nH]c3ncc(-c4cncc(C(=O)N(C)C)c4)cc23)c1	non-BCR-ABL leukaemia cells		concentration not given		cytotoxicity	not toxic
O=C(Nc1nnc2c1c(-c1ccc(Cl)cc1)nc1sc(=Cc3ccco3)c(=O)n12)c1ccccc1 (mixture of isomers)	M14	SRB	10 µM, NCI60 single-dose screen	reference: untreated	cell growth	58.5%
CC(C)c1ccc(N(C)c2ccc3c(c2)OCC[C@H]3CNc2cnccc2C(=O)O)cc1	SCC-25	cell viability	7 days		IC50	≥ 10000 nM
CCN(CC)CC(=O)Nc1cccc(-n2cc(-c3ccc4ccc(-c5cn(-c6cccc(NC(=O)CN(CC)CC)c6)nn5)cc4c3)nn2)c1	RCC4	PCR angiogenesis array, measured: TEK	5 x IC50, 2 h, normoxia	reference: untreated	fold regulation	1.62 fold
Fc1ccc(Nc2nc(NC3CCCCC3)c3ccccc3n2)cc1F	transfected HEK293 cells	β-arrestin2 recruitment, negative allosteric modulator, BRET	30 min pre-incubation, β1AR ECL1 chimera, with: isoproterenol 1 µM		pIC50	6.3
Cn1ncc2cc(-c3cncc(Cl)c3N3CCC4(CCNC4=O)CC3)ccc21	LS174T	gene expression, microarray, measured: EDN2 mRNA	concentration not given, 24 h	reference: untreated cells	log2 fold change	-3.37
O=C(CCCCCOc1ccc2ccccc2c1)N[C@@H](CO)C[C@@H](O)c1ccc(-c2ccccc2)cc1	HeLa	CERT activity, HPLC-MS/MS lipidomics, measured: sphingomyelin 22	1 µM, 24 h, not cell-number normalised		sphingomyelin level	45700 pmol/sample and 44500 pmol/sample and 40300 pmol/sample

SMILES	cell line	test	setting	how to read	endpoint	result
Fc1ccc(Nc2nc(NC3CCCCC3)c3cc(Br)ccc3n2)cc1F	transfected HEK293 cells	β-arrestin2 recruitment, negative allosteric modulator, BRET	30 min pre-incubation, β1AR ECL1/2 chimera, with: isoproterenol 1 µM		pIC50	6.5
CN1CCN(Cc2ccc(C(=O)Nc3ccc4c(/C=C/c5ccccn5)n[nH]c4c3)cc2)CC1	Ba/F3 TEL-VEGFR2	cell growth, CCK-8			GI50	190 nM
CC(C)C[C@H](NC(=O)[C@@H]1CCCN1C(=O)[C@H](CCCCN)NC(=O)[C@@H](N)CO)C(=O)N1CCC[C@H]1C(=O)N[C@@H](CCC(=O)O)C(=O)N[C@H](C(=O)N[C@H](C(=O)N[C@@H](CC(=O)O)C(=O)N[C@@H](CCC(=O)O)C(=O)N[C@@H](Cc1ccc(O)cc1)C(=O)NCC(=O)NCCOCCOCCOCCOCCOCCOCCOCCOCCOCCOCCOCCOCCOCCOCCOCCOCCOCCOCCOCCOCCOCCOCCOCCOCCC(=O)N[C@@H](CCCCNC(=O)CC[C@H](C(=O)O)N1CCN(CC(=O)O)CCN(CC(=O)O)CC1)C(=O)N1CCN(CCCN(C)c2ccc3nccc(C(=O)NCC(=O)N4CC(F)(F)C[C@H]4C#N)c3c2)CC1)[C@@H](C)O)C(C)C	HT-1080 expressing hFAP	binding, flow cytometry	200 nM		positive cells	95.7%
CCN(C(=O)c1cc(F)ccc1Oc1nncnc1N1CCC2(C1)CN([C@H](CCCN(C)CCOC)C(C)C)C2)C(C)C	PANC-1	cell growth or viability	7 days		GI50	> 10000 nM
C=C(NC(=O)c1csc(-c2ccc(NC(=O)CCCCCBr)cc2)n1)C(=O)NC(=C)C(=O)OC	NCI-H1792	cell growth or viability			EC50	2000 nM
COc1ccccc1-c1ccncc1C(=O)Nc1nnc(OCc2ccc(Cl)cc2)s1	MDA-MB-436		6 µM		colony count	6.5 and 12.5 and 12
COC(=O)c1cc(NC2=NC(=O)C(=Cc3ccc(N(C)C)cc3)S2)ccc1OC(C)=O	MCF7	GC-MS, measured: Guanosine	1 µM	reference: DMSO	metabolite level	-0.1 fold change
CCOc1cncc(-c2ccc(NC(=O)C3(c4ccnc(NS(=O)(=O)C5CC5)n4)CCOCC3)nc2)n1	human Hepatic cancer	cell proliferation, inhibitor, CellTiter-Glo viability	72 h, 0.1% DMSO		IC50	8380 nM
CN(C)c1ccc(-n2cc(COC(=O)[C@]3(C)C=C(C(=O)OC(C)(C)C)C(=O)CC3)nn2)cc1	HeLa	quantitative western blot	concentration not given, 20 (unit not given), with: EGF		pERK/ERK ratio	0.206
COc1cccc(OC)c1-c1cc(C(=O)NC2(C(=O)O)C3CC4CC(C3)CC2C4)nn1-c1ccc(C(=O)N(C)CCOCCOCCN(C)C(=O)[C@H](CCCCNC(=O)[C@H](CC(C)C)NC(=O)C2OC2C(=O)O)NC(=O)CN2CCN(CC(=O)[O-])CCN(CC(=O)[O-])CCN(CC(=O)[O-])CC2)cc1C(C)C.[177Lu+3] (mixture of isomers)	HT-29		concentration not given, 120 min	reference: added activity	internalized fraction	0.95 ± 0.03%
CNS(=O)(=O)Nc1nccc(Cc2c(C)c3ccc(Oc4ncccc4F)cc3oc2=O)c1F	DMS-273	cell viability	7 days		IC50	> 1000 nM
C1=[N+]2CCCC[N+]3=Cc4ccc5[n]4[Au-]23[n]2c1ccc2-c1nc2ccccc2nc1-5.F[P-](F)(F)(F)(F)F	TK-10	NCI60 five-dose screen			TGI	4 -log M
O=C(NCc1cc(F)cc(F)c1)[C@@]1(O)CCN(c2ccc3[nH]ccc3c2)C1=O	LXFA526 lung adenocarcinoma cells	colony formation, soft agar clonogenic	concentration not given		efficacy	39%
CN1CCCNC(=O)c2cccc(c2)C(=O)NCCCN(C)CCCNc2cccc3c2C(=O)c2cccc(c2C3=O)NCCC1	SAS	RNA-Seq, measured: MST1R mRNA	1 µM, 6 h	reference: untreated cells	log2 fold change	-1.02
CCC(=CCc1c(O)cc2c(c1O)C(=O)CC(c1ccc(O)cc1)O2)CC (stereo not drawn)	HeLa	flow cytometry	48 µM, 48 h		active caspase-3 cells	3.42%
CN1CC[C@@H](COc2cnc(C#N)cc2-c2ccn3nc(NC(=O)C4CC4)cc3c2)C1	human PBMC, CD4 memory T cells	single-cell RNA-seq	1 µM, with: LPS	reference: LPS alone	number of upregulated genes	20 genes

Some of these lines once more:
SMILES	cell line	test	setting	how to read	endpoint	result
Fc1ccc(Nc2nc(NC3CCCCC3)c3cc(Br)ccc3n2)cc1F	transfected HEK293 cells	β-arrestin2 recruitment, negative allosteric modulator, BRET	30 min pre-incubation, β1AR ECL1/2 chimera, with: isoproterenol 1 µM		pIC50	6.5
CN1CCN(Cc2ccc(C(=O)Nc3ccc4c(/C=C/c5ccccn5)n[nH]c4c3)cc2)CC1	Ba/F3 TEL-VEGFR2	cell growth, CCK-8			GI50	190 nM
CC(C)C[C@H](NC(=O)[C@@H]1CCCN1C(=O)[C@H](CCCCN)NC(=O)[C@@H](N)CO)C(=O)N1CCC[C@H]1C(=O)N[C@@H](CCC(=O)O)C(=O)N[C@H](C(=O)N[C@H](C(=O)N[C@@H](CC(=O)O)C(=O)N[C@@H](CCC(=O)O)C(=O)N[C@@H](Cc1ccc(O)cc1)C(=O)NCC(=O)NCCOCCOCCOCCOCCOCCOCCOCCOCCOCCOCCOCCOCCOCCOCCOCCOCCOCCOCCOCCOCCOCCOCCOCCOCCC(=O)N[C@@H](CCCCNC(=O)CC[C@H](C(=O)O)N1CCN(CC(=O)O)CCN(CC(=O)O)CC1)C(=O)N1CCN(CCCN(C)c2ccc3nccc(C(=O)NCC(=O)N4CC(F)(F)C[C@H]4C#N)c3c2)CC1)[C@@H](C)O)C(C)C	HT-1080 expressing hFAP	binding, flow cytometry	200 nM		positive cells	95.7%
CCN(C(=O)c1cc(F)ccc1Oc1nncnc1N1CCC2(C1)CN([C@H](CCCN(C)CCOC)C(C)C)C2)C(C)C	PANC-1	cell growth or viability	7 days		GI50	> 10000 nM
C=C(NC(=O)c1csc(-c2ccc(NC(=O)CCCCCBr)cc2)n1)C(=O)NC(=C)C(=O)OC	NCI-H1792	cell growth or viability			EC50	2000 nM
COc1ccccc1-c1ccncc1C(=O)Nc1nnc(OCc2ccc(Cl)cc2)s1	MDA-MB-436		6 µM		colony count	6.5 and 12.5 and 12
